Experimental data collected from several papers.
A part holds a random share of what one study measured.
UniProt Q13464, sequence (whole entry, looked up): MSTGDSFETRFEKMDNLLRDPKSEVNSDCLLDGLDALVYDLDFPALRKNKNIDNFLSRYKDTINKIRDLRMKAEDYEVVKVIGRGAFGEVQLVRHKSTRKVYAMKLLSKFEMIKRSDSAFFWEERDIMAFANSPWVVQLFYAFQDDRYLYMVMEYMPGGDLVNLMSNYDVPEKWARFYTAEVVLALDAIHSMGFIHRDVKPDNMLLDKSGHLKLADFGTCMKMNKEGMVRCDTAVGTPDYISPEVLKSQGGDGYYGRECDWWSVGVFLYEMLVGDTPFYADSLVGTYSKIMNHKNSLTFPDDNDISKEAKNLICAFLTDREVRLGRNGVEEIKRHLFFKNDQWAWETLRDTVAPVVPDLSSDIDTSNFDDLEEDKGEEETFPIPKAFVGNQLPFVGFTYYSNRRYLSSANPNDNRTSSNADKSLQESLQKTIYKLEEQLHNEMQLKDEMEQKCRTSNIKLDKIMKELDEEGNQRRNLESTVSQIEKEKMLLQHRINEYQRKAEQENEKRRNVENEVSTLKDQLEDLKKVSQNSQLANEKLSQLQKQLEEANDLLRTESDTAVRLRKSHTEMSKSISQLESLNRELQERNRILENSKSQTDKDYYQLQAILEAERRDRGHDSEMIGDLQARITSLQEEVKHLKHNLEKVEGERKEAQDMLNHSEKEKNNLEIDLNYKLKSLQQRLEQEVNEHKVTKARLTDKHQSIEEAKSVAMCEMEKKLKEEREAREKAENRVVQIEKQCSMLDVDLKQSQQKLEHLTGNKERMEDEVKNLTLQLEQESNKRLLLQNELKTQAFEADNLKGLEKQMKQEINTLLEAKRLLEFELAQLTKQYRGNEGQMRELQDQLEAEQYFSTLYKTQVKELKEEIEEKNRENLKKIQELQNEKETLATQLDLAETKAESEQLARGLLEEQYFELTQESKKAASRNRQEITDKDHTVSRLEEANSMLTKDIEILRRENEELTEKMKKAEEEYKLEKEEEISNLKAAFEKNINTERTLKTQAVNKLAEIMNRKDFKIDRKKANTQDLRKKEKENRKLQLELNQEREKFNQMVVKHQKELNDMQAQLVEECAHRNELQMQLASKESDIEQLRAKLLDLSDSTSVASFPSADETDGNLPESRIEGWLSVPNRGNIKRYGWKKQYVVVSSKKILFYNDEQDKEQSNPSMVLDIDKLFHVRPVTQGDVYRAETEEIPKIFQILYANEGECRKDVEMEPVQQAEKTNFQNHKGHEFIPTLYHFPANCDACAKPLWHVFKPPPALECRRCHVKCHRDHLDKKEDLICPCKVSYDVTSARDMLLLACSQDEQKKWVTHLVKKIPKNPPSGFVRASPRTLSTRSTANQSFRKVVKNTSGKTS
UniProt P07333, sequence (whole entry, looked up): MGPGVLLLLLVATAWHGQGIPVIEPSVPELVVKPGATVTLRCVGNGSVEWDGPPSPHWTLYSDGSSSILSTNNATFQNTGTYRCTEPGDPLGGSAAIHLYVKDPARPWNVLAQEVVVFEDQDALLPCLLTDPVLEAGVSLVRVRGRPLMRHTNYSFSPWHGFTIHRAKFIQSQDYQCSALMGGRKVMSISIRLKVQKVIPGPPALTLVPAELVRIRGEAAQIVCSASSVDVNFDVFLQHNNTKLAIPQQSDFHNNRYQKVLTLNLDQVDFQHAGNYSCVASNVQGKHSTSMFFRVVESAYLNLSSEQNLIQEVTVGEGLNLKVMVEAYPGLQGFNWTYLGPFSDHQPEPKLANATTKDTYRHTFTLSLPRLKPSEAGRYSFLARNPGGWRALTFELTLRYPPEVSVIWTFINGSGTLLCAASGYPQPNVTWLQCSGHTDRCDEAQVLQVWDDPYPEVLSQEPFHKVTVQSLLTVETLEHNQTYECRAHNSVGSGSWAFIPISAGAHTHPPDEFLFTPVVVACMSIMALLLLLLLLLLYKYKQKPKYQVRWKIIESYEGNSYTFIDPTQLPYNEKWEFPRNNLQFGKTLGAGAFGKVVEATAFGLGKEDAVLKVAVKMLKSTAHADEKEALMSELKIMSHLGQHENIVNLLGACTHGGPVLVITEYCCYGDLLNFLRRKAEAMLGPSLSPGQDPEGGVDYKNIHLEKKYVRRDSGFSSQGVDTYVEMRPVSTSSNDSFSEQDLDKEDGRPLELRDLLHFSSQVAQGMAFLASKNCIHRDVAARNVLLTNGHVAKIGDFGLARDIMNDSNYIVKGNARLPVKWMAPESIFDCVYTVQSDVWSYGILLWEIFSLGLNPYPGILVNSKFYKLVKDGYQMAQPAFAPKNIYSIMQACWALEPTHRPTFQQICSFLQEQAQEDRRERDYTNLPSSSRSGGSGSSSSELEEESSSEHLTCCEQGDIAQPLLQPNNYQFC

Sample 1
SMILES: CC(C)n1cnc(-c2ccc(F)cc2)c1-c1ncc(C(=O)Nc2ccc(N3CCN(C)CC3)cc2)[nH]1
Species: idiopathic pulmonary fibrosis patients
Matrix: plasma
Quantity: AUC(0-t)
30 mg twice daily, week 0, median: 274 ng·h/mL
oral, 30 mg once daily, week 0, arithmetic mean: 553 ng·h/mL
oral, 60 mg once daily, week 12, median: 3310 ng·h/mL
30 mg twice daily, week 0, arithmetic mean: 315 ng·h/mL
30 mg twice daily, week 12, arithmetic mean: 1390 ng·h/mL
oral, 30 mg once daily, week 12, median: 803 ng·h/mL

Sample 2
SMILES: O=C1NC(=O)c2c1c1c3ccccc3[nH]c1n1cncc21
Effect on: enzyme activity
Mode: inhibitor
Concentration: 0.5 µM
Relative to: control
Quantity: remaining activity
Serine/threonine-protein kinase Nek3 (NEK3, Homo sapiens, UniProt P51956): 89.3%
Serine/threonine-protein kinase MRCK beta (CDC42BPB, Homo sapiens, UniProt Q9Y5S2): 94.8%
Misshapen-like kinase 1 (MINK1, Homo sapiens, UniProt Q8N4C8): 48.2%
Hepatocyte growth factor receptor (MET, Homo sapiens, UniProt P08581): 93.4%
Serine/threonine-protein kinase PLK3 (PLK3, Homo sapiens, UniProt Q9H4B4): 48.2%
Mitogen-activated protein kinase 11 (MAPK11, Homo sapiens, UniProt Q15759): 94.5%
RAC-beta serine/threonine-protein kinase (AKT2, Homo sapiens, UniProt P31751): 121%
cGMP-dependent protein kinase 2 (PRKG2, Homo sapiens, UniProt Q13237): 64.1%
Rho-associated protein kinase 1 (ROCK1, Homo sapiens, UniProt Q13464): 95.9%
Mitogen-activated protein kinase 14 (MAPK14, Homo sapiens, UniProt Q16539): 101%
Mitogen-activated protein kinase 1 (MAPK1, Homo sapiens, UniProt P28482): 125%
Vascular endothelial growth factor receptor 2 (KDR, Homo sapiens, UniProt P35968): 66.6%
Serine/threonine-protein kinase MARK2 (MARK2, Homo sapiens, UniProt Q7KZI7): 34.7%

Sample 3
SMILES: O=C(O)[C@@H]1[C@@H](Cn2nnc3ccccc3c2=O)CC[C@H]1C(=O)c1ccc(OCCC2CCOCC2)cc1
Effect on: cell-free assay
Method: competition with immobilised ligand
Concentration: 1 µM
Quantity: remaining binding
Rho-associated protein kinase 1 (ROCK1, Homo sapiens, UniProt Q13464): 84%
Protein kinase C theta type (PRKCQ, Homo sapiens, UniProt Q04759): 85%
Phosphatidylinositol 4-phosphate 5-kinase type-1 alpha (PIP5K1A, Homo sapiens, UniProt Q99755): 94%
Mitogen-activated protein kinase 7 (MAPK7, Homo sapiens, UniProt Q13164): 100%
Macrophage colony-stimulating factor 1 receptor, autoinhibited (CSF1R, Homo sapiens, UniProt P07333): 94%
Homeodomain-interacting protein kinase 3 (HIPK3, Homo sapiens, UniProt Q9H422): 100%
Casein kinase II subunit alpha (CSNK2A1, Homo sapiens, UniProt P68400): 87%
Inhibitor of nuclear factor kappa-B kinase subunit beta (IKBKB, Homo sapiens, UniProt O14920): 100%

Sample 4
Target: DNA polymerase theta, ATPase domain (POLQ, Homo sapiens, UniProt O75417)
UniProt O75417, sequence (whole entry, unmodified, looked up): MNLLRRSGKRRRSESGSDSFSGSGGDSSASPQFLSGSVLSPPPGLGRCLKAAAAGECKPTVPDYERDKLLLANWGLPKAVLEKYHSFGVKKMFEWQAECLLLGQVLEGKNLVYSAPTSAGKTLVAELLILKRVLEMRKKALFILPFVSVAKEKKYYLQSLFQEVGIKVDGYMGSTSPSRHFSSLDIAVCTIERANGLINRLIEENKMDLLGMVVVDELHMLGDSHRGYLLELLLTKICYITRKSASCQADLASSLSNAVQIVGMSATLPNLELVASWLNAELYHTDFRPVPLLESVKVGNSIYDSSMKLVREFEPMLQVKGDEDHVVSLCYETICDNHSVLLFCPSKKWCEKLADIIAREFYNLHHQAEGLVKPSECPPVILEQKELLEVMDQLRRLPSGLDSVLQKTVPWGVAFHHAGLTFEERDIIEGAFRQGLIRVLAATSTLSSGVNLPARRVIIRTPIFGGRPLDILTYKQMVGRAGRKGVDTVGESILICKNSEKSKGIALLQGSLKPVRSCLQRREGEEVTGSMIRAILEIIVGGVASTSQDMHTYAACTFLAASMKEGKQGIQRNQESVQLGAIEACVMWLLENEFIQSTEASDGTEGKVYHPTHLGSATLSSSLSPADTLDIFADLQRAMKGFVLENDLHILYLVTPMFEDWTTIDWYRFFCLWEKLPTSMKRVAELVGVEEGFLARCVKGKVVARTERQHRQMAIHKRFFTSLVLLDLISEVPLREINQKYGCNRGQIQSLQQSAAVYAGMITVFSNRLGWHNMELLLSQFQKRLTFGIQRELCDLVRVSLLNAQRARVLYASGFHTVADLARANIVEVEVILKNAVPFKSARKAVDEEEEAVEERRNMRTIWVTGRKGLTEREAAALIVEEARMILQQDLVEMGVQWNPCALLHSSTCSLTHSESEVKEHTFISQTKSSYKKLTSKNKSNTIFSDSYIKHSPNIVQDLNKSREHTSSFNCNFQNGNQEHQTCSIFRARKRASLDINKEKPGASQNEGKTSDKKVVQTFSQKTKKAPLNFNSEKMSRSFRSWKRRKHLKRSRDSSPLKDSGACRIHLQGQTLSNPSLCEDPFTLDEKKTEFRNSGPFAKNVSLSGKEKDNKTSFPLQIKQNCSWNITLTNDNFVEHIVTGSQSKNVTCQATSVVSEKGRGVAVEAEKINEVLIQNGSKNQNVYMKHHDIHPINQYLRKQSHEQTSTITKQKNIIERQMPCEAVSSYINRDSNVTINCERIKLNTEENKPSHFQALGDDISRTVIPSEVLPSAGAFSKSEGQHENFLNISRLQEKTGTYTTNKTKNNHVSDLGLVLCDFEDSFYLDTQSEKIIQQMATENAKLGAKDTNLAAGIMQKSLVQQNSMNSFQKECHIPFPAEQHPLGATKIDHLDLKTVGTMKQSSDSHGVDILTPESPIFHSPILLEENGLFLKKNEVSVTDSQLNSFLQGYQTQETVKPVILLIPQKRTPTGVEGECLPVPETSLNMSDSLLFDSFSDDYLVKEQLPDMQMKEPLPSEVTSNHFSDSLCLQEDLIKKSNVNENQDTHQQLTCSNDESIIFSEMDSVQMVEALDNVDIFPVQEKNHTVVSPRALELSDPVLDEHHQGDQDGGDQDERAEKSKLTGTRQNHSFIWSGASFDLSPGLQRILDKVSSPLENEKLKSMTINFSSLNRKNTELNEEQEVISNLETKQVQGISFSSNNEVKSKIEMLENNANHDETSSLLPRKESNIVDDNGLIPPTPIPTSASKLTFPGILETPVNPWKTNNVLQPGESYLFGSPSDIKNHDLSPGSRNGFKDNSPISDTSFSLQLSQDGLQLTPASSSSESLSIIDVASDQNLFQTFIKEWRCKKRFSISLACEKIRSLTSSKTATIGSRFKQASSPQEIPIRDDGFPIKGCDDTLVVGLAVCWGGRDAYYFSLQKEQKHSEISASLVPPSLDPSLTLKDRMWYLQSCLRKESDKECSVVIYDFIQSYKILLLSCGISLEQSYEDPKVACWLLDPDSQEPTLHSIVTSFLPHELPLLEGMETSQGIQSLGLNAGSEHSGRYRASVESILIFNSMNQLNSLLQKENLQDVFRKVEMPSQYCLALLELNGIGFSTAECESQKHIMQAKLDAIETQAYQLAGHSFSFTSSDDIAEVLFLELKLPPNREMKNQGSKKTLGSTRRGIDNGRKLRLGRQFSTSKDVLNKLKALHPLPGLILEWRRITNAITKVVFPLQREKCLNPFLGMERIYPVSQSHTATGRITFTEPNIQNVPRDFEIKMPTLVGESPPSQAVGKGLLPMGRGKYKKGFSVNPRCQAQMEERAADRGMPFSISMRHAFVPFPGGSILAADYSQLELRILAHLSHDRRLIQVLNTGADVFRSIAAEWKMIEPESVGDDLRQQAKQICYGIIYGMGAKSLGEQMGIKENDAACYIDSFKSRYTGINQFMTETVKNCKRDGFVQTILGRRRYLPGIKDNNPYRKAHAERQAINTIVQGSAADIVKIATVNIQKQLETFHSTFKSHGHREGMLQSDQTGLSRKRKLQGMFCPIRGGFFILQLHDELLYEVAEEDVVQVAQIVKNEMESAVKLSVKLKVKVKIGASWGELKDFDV
Effect on: enzyme activity
Mode: inhibitor
Concentration: 77 µM
Relative to: untreated
Quantity: remaining activity
Cn1c(=O)c2[nH]c(-c3ccc(S(=O)(=O)O)cc3)nc2n(C)c1=O: 94.4%
C[C@]1(O)C[C@@H](c2nc(-c3ccc4ccc(-c5ccccc5)nc4c3)c3c(N)nccn32)C1: 98.1%
COc1cc2ncnc(Oc3cccc(NC(=O)Nc4cc(C(C)(C)C(F)(F)F)on4)c3)c2cc1OC: 100%
C[C@@H](CN1CCC(Cc2ccccc2)CC1)[C@@H](O)c1ccc(O)cc1: 97.2%
CCN(CC)CCOC(=O)[C@H](Cc1cccc2ccccc12)C[C@H]1CCCO1: 101%
CCOC(=O)c1cnc2c(cnn2CC)c1NN=C(C)C: 101%
CC(=O)O[C@]1(C(C)=O)CC[C@H]2[C@@H]3C[C@H](C)C4=CC(=O)CC[C@]4(C)[C@H]3CC[C@@]21C: 102%
CC[C@]1(O)C[C@H]2CN(CCc3c([nH]c4ccccc34)[C@@](C(=O)OC)(c3cc4c(cc3OC)N(C=O)[C@H]3[C@@](O)(C(=O)OC)[C@H](OC(C)=O)[C@]5(CC)C=CCN6CC[C@]43[C@@H]65)C2)C1: 101%
Nc1nc(Cl)nc2c1ncn2[C@@H]1O[C@H](COP(=O)(O)OP(=O)(O)OP(=O)(O)O)[C@H](O)C1O (some centres unmarked): 92.8%
CC(=O)O/N=C1\C(=O)N(Cc2cc(Cl)ccc2Cl)c2ccc(Cl)cc21: 99.8%
CCCCCOC(=O)Nc1nc(=O)n([C@@H]2O[C@H](C)[C@@H](O)[C@H]2O)cc1F: 104%
CC1(C)CCC(C)(C)c2cc(NC(=O)c3ccc(C(=O)O)cc3)ccc21: 93.9%
CCCCN(CCCC)CCC(O)c1cc2c(Cl)cc(Cl)cc2c2cc(C(F)(F)F)ccc12 (centres unmarked): 87.2%
NC(=O)[C@@H](CCC(F)(F)F)N(Cc1ccc(-c2ncon2)cc1F)S(=O)(=O)c1ccc(Cl)cc1: 101%

Repeated from above (sample 1):
oral, 30 mg once daily, week 0, arithmetic mean: 553 ng·h/mL
oral, 60 mg once daily, week 12, median: 3310 ng·h/mL
30 mg twice daily, week 0, arithmetic mean: 315 ng·h/mL
30 mg twice daily, week 12, arithmetic mean: 1390 ng·h/mL
oral, 30 mg once daily, week 12, median: 803 ng·h/mL
